Experimental data pooled from the literature.
Lines come from different studies, so protocols differ. ± marks the error that the study gave.
CYP3A4: Cytochrome P450 3A4 (CYP3A4, Homo sapiens, UniProt P08684)
Chain of UniProt P08684 (whole entry, unmodified, looked up): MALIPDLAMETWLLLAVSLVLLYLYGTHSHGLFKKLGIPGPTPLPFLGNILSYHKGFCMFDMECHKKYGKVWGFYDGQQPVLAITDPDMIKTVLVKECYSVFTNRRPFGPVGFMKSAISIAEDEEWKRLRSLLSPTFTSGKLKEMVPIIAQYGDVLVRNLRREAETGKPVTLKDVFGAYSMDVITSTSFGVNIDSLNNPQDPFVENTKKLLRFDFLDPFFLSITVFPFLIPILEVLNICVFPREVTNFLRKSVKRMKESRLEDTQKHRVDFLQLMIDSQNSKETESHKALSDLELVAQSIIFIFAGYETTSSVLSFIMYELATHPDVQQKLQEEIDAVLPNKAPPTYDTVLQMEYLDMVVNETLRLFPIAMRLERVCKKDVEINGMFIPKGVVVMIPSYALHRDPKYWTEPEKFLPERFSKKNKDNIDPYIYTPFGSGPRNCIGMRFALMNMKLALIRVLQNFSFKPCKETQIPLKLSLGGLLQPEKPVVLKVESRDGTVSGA

| Compound | target | assay | test system | setting | scale | measurement | result |
| --- | --- | --- | --- | --- | --- | --- | --- |
| COc1cc(/C=C/c2ccc(O)cc2)cc(OC)c1 | CYP3A4 | enzyme activity, inhibitor | human, liver microsomes | 10 min, pH 7.4, midazolam probe |  | IC50 | > 100 µM |
| C=CC[C@]1(O)CC[C@H]2[C@@H]3CCC4=CC(=O)CC[C@]4(C)[C@H]3CC[C@@]21C | CYP3A4 | enzyme activity, inhibitor |  |  |  | IC50 | 2.8 µM |
| OCc1ncc2n1-c1ccc(Cl)cc1C(c1ccccc1F)=NC2 | CYP3A4 |  | human | 25 mg once daily, day 1, added: midazolam 7.5 mg | reference: compound over midazolam | AUC ratio | 0.335 |
| CC1=N[C@]2(C(=O)CO)[C@@H](C[C@H]3[C@@H]4C[C@@H](O)C5=CC(=O)C=C[C@]5(C)[C@H]4[C@@H](O)C[C@@]32C)O1 | CYP3A4 | enzyme activity, inhibitor | pooled human liver microsomes | 30 min preincubation without NADPH, added: midazolam substrate |  | IC50 | > 50 µM |
| Cc1ncc2n1-c1ccc(Cl)cc1C(c1ccccc1F)=NC2 | CYP3A4 |  | healthy female humans, plasma | oral, dose not given, day 1, probe cocktail alone |  | AUC(0-inf) | 32 ± 8.3 ng·h/mL |
| O=C(O)C(F)(F)C(F)(F)C(F)(F)C(F)(F)C(F)(F)F | CYP3A4 | enzyme activity, inhibitor |  | Supersomes, added: 7-BFC substrate |  | IC50 | > 100 µM |
| CC[C@H](C)[C@@H]([C@@H](CC(=O)N1CCC[C@H]1[C@H](OC)[C@@H](C)C(=O)N[C@@H](Cc1ccccc1)c1nccs1)OC)N(C)C(=O)[C@@H](NC(=O)C(C)(C)N)C(C)C | CYP3A4 |  | patients | added: fluconazole multiple dose | reference: with over without fluconazole | Cmax ratio | 102% |
| Cc1ncc2n1-c1ccc(Cl)cc1C(c1ccccc1F)=NC2 | CYP3A4 | ligand, stopped flow |  | 40 µM, pH 7.4, opt-WT variant |  | kfast | 0.19 ± 0.03 s⁻¹ |
| C[C@]12CCC(=O)C=C1CC[C@@H]1[C@@H]2CC[C@@]2(C)[C@H]1CC[C@@]2(O)C/C=C/C[C@]1(O)CC[C@H]2[C@@H]3CCC4=CC(=O)CC[C@]4(C)[C@H]3CC[C@@]21C | CYP3A4 | binding, absorbance |  | pH 7.4 |  | Kd | 0.24 µM |
| OCCCCc1ccc2ccc3cccc4ccc1c2c34 | Cytochrome P450 3A4 (CYP3A4, Homo sapiens, UniProt P08684, F213W) | FRET titration by dilution |  | pH 7.4, F213W mutant, excess substrate, enzyme:substrate 1:5, added: HPCD 0.6 mg/mL |  | Kd | 7 ± 0.05 µM |

Repeated from above:
| Compound | target | assay | test system | setting | scale | measurement | result |
| --- | --- | --- | --- | --- | --- | --- | --- |
| Cc1ncc2n1-c1ccc(Cl)cc1C(c1ccccc1F)=NC2 | CYP3A4 | ligand, stopped flow |  | 40 µM, pH 7.4, opt-WT variant |  | kfast | 0.19 ± 0.03 s⁻¹ |
